Measured values gathered from unrelated publications.
A part holds a random share of what one study measured. Positions count from the first letter of the parent shown.

Set 1
Target: Max dimerization protein 1, bHLH-zipper, MAX partner unstated (MXD1, Homo sapiens, UniProt Q05195, residues 56-136)
Technique: protein-binding microarray
Form: double-stranded DNA, one strand shown
Medium: in vitro
Concentration: not given
Setting: k-mer, scored over probes, only values ≥0.25
Reading: higher = stronger binding
Target sequence (chain): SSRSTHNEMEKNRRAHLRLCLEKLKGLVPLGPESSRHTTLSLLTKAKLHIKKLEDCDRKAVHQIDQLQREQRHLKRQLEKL
Oligonucleotide | E-score
CATGGCGG | 0.335
ACGTTGAT | 0.28
CCGTCCCC | 0.273
CAAGCACG | 0.324
CACACGCG | 0.442
CCCTACCA | 0.268
CCCGTGTC | 0.26
GACGTGGC | 0.262
CCACGTTC | 0.33
CGTGCGTC | 0.394
CCACGAGC | 0.301
AATCATGC | 0.275
CGTGTTCC | 0.369

Set 2
Target: Histone acetyltransferase KAT6A, winged helix 2, GST fusion (KAT6A, Homo sapiens, UniProt Q92794, residues 85-181)
Technique: protein binding microarray
Form: double-stranded DNA, one strand shown
Medium: in vitro
Concentration: not given
Setting: 8-mer, flanks averaged, mean of 2 arrays, mostly near background
Relative to: not given
Reading: higher = stronger binding
Residues (chain): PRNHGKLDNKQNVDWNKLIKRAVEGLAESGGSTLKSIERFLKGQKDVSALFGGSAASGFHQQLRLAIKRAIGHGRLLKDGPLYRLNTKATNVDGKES
Oligonucleotide | E-score
ACATAGGG | -0.0648
GTATAGTA | -0.226
CCGAGACG | 0.102
ACGACTTA | -0.222
TAGCGTCA | -0.0952
ACAGAGAC | 0.01
TAGGAAGA | -0.0327
GCTCTTAC | 0.0351
CACTCCGA | 0.0313

Set 3
Target: CCNB1, cyclin fold, Cln2 fusion (human)
Technique: yeast growth competition, sequencing
Medium: yeast
Setting: weak parent motif
Relative to: not given
Reading: higher = stronger binding
Starting sequence: RB1 docking peptide (human); PKPLKKLRFDIEG
Substitution | normalised enrichment score
F9D | 0.735
D10H | 1.03
G13W | 0.658
K2G | 0.395
P1I | -0.0794
R8P | 0.24
F9P | 0.198
K6N | 0.332
D10W | 0.171
G13F | 0.0402
P1N | -0.0121
P1Y | -0.237

Single results of other studies
Substance | target | test | system | setting | scale | endpoint | result
PhoQ, residues 284 288 289 292 302 303 ASTSDA | PhoP, residues 12 14 15 18 19 AWHSL (Escherichia coli, UniProt P23836) | Sort-seq, item: YFP reporter | E. coli | PhoQ-PhoP variant library, with: 10 µM Mg2+ | relative to: high Mg2+ state, higher = stronger signaling | fold induction | 6.6
